Experimental data collected from several papers.
Lines come from different studies, so protocols differ. Several values in a cell are separate wells, animals, samples, runs or records. pEC50, pIC50: −log10 of the molar value.

SMILES	cell line	assay	setting	how to read	quantity	result
O=C(C[Se]C(=O)c1cc2ccccc2o1)Nc1cccc(C(F)(F)F)c1	NCI60 leukemia subpanel	cell growth	10 µM, 48 h, one-dose	–	mean growth percent	-76.7%
CC(C)(C)c1ccc([C@H](O)C[C@H](CO)NC(=O)CCCCCOc2ccc3ccccc3c2)cc1	HeLa	CERT activity, HPLC-MS/MS lipidomics, refers to: lactosylceramide 16	1 µM, 24 h, not cell-number normalised	–	lactosylceramide level	12000 pmol/sample and 22700 pmol/sample and 21300 pmol/sample
Cc1cc(Cl)cc(-c2ccnc3cc(CN4C(=O)C5C(C4=O)C5(C)C)sc23)c1C[C@@H]1CNCCO1 (stereo partly drawn)	CHP-212 resistant cells (pooled)	annexin V-PI flow cytometry	1 µM, 48 h	–	viable cells (annexin V-/PI-)	78.9% and 84.6% and 90.9%
C[C@@H]1CC[C@@H]([C@@](O)(CNCc2cccc(F)c2)COCc2ccccc2)[C@H](OCc2ccccc2)C1	HeLa	cell growth or viability, MTT	30 µM, 72 h	–	inhibition	98.1%
CCN(CC)CC(=O)Nc1cccc(-n2cc(-c3ccc4ccc(-c5cn(-c6cccc(NC(=O)CN(CC)CC)c6)nn5)cc4c3)nn2)c1	RCC4	PCR angiogenesis array, refers to: ANGPT1	5 x IC50, 2 h, normoxia	relative to: untreated	fold regulation	-1.1
CNS(=O)(=O)Nc1nccc(Cc2c(C)c3ccc(Oc4ncccc4F)cc3oc2=O)c1F	BCP-1	cell viability	7 days	–	pIC50	< 6.00
CCC(=CCc1c(O)cc2c(c1O)C(=O)CC(c1ccc(OC)c(O)c1)O2)CC (stereo not drawn)	HeLa	cell growth or viability, MTT	1.563 µM, 48 h	–	inhibition	4.14%
COc1ccc(NC(=O)c2ccc3[nH]c(-c4ccc(N(C)C)cc4)nc3c2)cn1	HCT-116	–	concentration not given, 6 h, unit not given	relative to: DMSO	extracellular HMGB1	5.38 and 3.8 and 4.58
Cc1ncsc1-c1ccc(C(C)NC(=O)C2CC(O)CN2C(=O)C(NC(=O)CCCCCCCCCCN2CCCC(Nc3ncc(Cl)c(Nc4ccccc4S(=O)(=O)C(C)C)n3)C2)C(C)(C)C)cc1 (stereo not drawn)	22Rv1	RNA-seq, refers to: SLC35C1 mRNA	concentration not given	relative to: DMSO	log2 fold change	-1.1
CO[C@@H]1[C@@H](OC(N)=O)[C@@H](O)[C@H](Oc2ccc3c(O)c(NC(=O)c4ccc(O)c(CC=C(C)C)c4)c(=O)oc3c2C)OC1(C)C	DLD-1 BRCA2-/-	–	250 µM, mean of replicates A, B	relative to: untreated	colony survival	0.326%
CC12CCCC(NS(=O)(=O)C3CCCCC3)(C1)C1CC(C)(C)C1CC2 (stereo not drawn)	HT-29	cell growth or viability, CCK-8	50 µM	–	inhibition	51.8%
COC1CCN(C(=O)/C=C/c2nn(Cc3cccc(C(F)(F)F)c3)c3nc(NC(C)(C)C)ncc23)CC1	FLO-1	cell growth or viability, resazurin	5 days	–	pEC50	4.90
CC(=O)N[C@@H](CC(=O)O)C(=O)N[C@@H](CCC(=O)O)C(=O)N[C@H](C(=O)N[C@@H](CC(=O)O)C(=O)COC(=O)c1c(C)cccc1C)C(C)C	THP-1 cells expressing FKBP-caspase-4	pyroptosis, inhibitor	concentration not given, together with: B/B dimerizer	–	LDH release	24.1% and 19.7% and 15.3%
COc1ccc(CSC2C3=C(CCCC3=O)Oc3ccc(Br)cc32)cc1 (stereo not drawn)	3T3-L1 mature adipocytes	lipolysis, Oil Red O staining	IC20	–	mean lipid content	0.723 OD492
CN1CCCNC(=O)c2cccc(c2)C(=O)NCCCN(C)CCCNc2cccc3c2C(=O)c2cccc(c2C3=O)NCCC1	SAS	RNA-Seq, refers to: CYB561A3 mRNA	1 µM, 6 h	relative to: untreated cells	log2 fold change	-0.81
CC12CCCC(NS(=O)(=O)c3cccc(F)c3)(C1)C1CC(C)(C)C1CC2 (stereo not drawn)	HT-29	cell growth or viability, CCK-8	10 µM	–	inhibition	< 50%
CCC(=CCc1c(O)cc2c(c1O)C(=O)CC(c1cc(O)ccc1OC)O2)CC (stereo not drawn)	HeLa	cell growth or viability, MTT	1.563 µM, 48 h	–	inhibition	-0.661%
O=S(=O)(N[C@H]1CCO[C@@H](C2c3ccccc3CCc3ccccc32)C1)c1ccc(OC(F)(F)F)cc1	D341	immunoblot	concentration not given, 72 h	–	total PARP level	decreased

Repeated from above:
SMILES	cell line	assay	setting	how to read	quantity	result
O=C(C[Se]C(=O)c1cc2ccccc2o1)Nc1cccc(C(F)(F)F)c1	NCI60 leukemia subpanel	cell growth	10 µM, 48 h, one-dose	–	mean growth percent	-76.7%
Cc1ncsc1-c1ccc(C(C)NC(=O)C2CC(O)CN2C(=O)C(NC(=O)CCCCCCCCCCN2CCCC(Nc3ncc(Cl)c(Nc4ccccc4S(=O)(=O)C(C)C)n3)C2)C(C)(C)C)cc1 (stereo not drawn)	22Rv1	RNA-seq, refers to: SLC35C1 mRNA	concentration not given	relative to: DMSO	log2 fold change	-1.1
